Assay results collected from several papers.
Numbers after ± are the reported error.
Cell line: A2780

`[N]#[Os]([Cl])([Cl])[Cl].c1ccc(-c2ccnc3c2ccc2c(-c4ccccc4)ccnc23)cc1` — result for “IC50 fold increase”: 13.3 fold (cytotoxicity; together with: salubrinal 10 µM; relative to: compound alone).
For `COc1ccnc(-c2cc(OC)ccn2)c1.[C-]#[O+].[C-]#[O+].[C-]#[O+].[Re+]`, the IC50 was 2.2 ± 1.8 µM (cell viability).
`Cc1cc(C)c(-n2ccn(-c3c(C)cc(C)cc3C)c2=[Se])c(C)c1.[Cl][Ag]` has an IC50 of 0.4 µM (cell growth or viability, MTT; 72 h).
With `CC1(C)OB(c2ccc(COC(=O)N(Cc3cccc(CN4CCCCC4)c3)[c-]3cccc3)cc2)OC1(C)C.[Fe+2].c1cc[cH-]c1` the IC50 was 5.6 µM (cell growth or viability, MTT; 48 h).
For `Cc1cc(C)c(N2CCN(c3c(C)cc(C)cc3C)C2=[Se])c(C)c1.[Cl][Au]`, the IC50 was 0.7 µM (cell growth or viability, MTT; 72 h).
The IC50 of `NC1CCCCC1N.O=C1[O][Pt]([O]C(=O)c2ccc(P(c3ccccc3)c3ccccc3)cc2)([O]C(=O)c2ccc(P(c3ccccc3)c3ccccc3)cc2)[O]C1=O.[Cl][Au].[Cl][Au]` is reported as 9.65 µM (cell growth or viability, resazurin; 72 h).
With `COC(=O)CC[C@@H](NC(=O)[C@@H](Cc1ccc(OP(=O)(O)O)cc1)NC(=O)[C@@H](Cc1ccccc1)NC(=O)[C@@H](Cc1ccccc1)NC(=O)Cc1ccc2ccccc2c1)C(=O)OC` the IC50 was > 200 µM (cell growth or viability).
The IC50 of `N.N.O=C([O][Pt]([OH])([Cl])[Cl])c1ccc(P(c2ccccc2)c2ccccc2)cc1.[Cl][Au]` is reported as 4.58 µM (cell growth or viability, resazurin; 72 h).
`Cc1ccnc(-c2cc(C)ccn2)c1.[C-]#[O+].[C-]#[O+].[C-]#[O+].[Re+]` gave an IC50 of 3.5 ± 2.8 µM (cell viability).
With `N.N.O=C([O][Pt]([Cl])([Cl])[O]C(=O)c1ccc(P(c2ccccc2)c2ccccc2)cc1)c1ccc(P(c2ccccc2)c2ccccc2)cc1.[Cl][Au].[Cl][Au]` the IC50 was 3.45 µM (cell growth or viability, resazurin; 72 h).
For `CC(C)C[C@@H](NC(=O)CCNc1ccc([N+](=O)[O-])c2nonc12)C(=O)N[C@H](CC(C)C)C(=O)N[C@H](CC(C)C)C(=O)N[C@H](CC(C)C)C(=O)N[C@H](Cc1ccc(OP(=O)(O)O)cc1)C(=O)O`, the viability was > 60% (MTT; 200 µM, 24 h).

For quick reference, copied from above:
The IC50 of `NC1CCCCC1N.O=C1[O][Pt]([O]C(=O)c2ccc(P(c3ccccc3)c3ccccc3)cc2)([O]C(=O)c2ccc(P(c3ccccc3)c3ccccc3)cc2)[O]C1=O.[Cl][Au].[Cl][Au]` is reported as 9.65 µM (cell growth or viability, resazurin; 72 h).
With `COC(=O)CC[C@@H](NC(=O)[C@@H](Cc1ccc(OP(=O)(O)O)cc1)NC(=O)[C@@H](Cc1ccccc1)NC(=O)[C@@H](Cc1ccccc1)NC(=O)Cc1ccc2ccccc2c1)C(=O)OC` the IC50 was > 200 µM (cell growth or viability).
